Measured values collected from several papers.
Lines come from different studies, so protocols differ. Numbers after ± are the reported error.
Histone chaperone ASF1A: Histone chaperone ASF1A (Homo sapiens, UniProt Q9Y294)
lecA: PA-I galactophilic lectin (lecA, Pseudomonas aeruginosa, UniProt Q05097)

SMILES = CNc1ccccc1C(=O)O[C@H]1C[C@H](n2cnc3c(N)ncnc32)O[C@@H]1COP(=O)(O)OP(=O)(O)O; target = Unconventional myosin-Va (Gallus gallus, UniProt Q02440, D297C/G292C/I296C/S293C/V295G); test = stopped-flow FRET, linear fit intercept; setting = 4 °C, together with: EDTA 4 mM; quantity = dissociation rate constant; result = 12.8 ± 0.41 s⁻¹
SMILES = Cc1ccc2c(c1)/C(=N/N=C/c1ccc(OCc3ccccc3)cc1)C(=O)N2; target = MAOA (Homo sapiens, UniProt P21397); test = enzyme activity, inhibitor; setting = 10 µM; quantity = remaining activity; result = 89.8%
SMILES = CC[C@H](C)[C@H](NC(=O)[C@H](CCCNC(=N)N)NC(=O)[C@H](CCCNC(=N)N)NC(=O)[C@H](C)NC(=O)[C@H](CC(C)C)NC(=O)[C@H](CCCNC(=N)N)NC(=O)[C@H](C)NC(=O)[C@H](Cc1c[nH]c2ccccc12)NC(=O)[C@H](CCCCN)NC(=O)[C@H](CCC(=O)O)NC(C)=O)C(=O)N[C@@H](C)C(=O)NCC(N)=O; target = Histone chaperone ASF1A; test = isothermal titration calorimetry; setting = concentration not given, pH 7.5, 20 °C; quantity = binding enthalpy; result = -10.3 ± 0.6 kcal/mol
SMILES = O=C(O)[C@H]1O[C@@H](O[C@H]2C=Cc3c(cc4ccc5cccc6c7ccccc7c3c4c56)[C@@H]2O)[C@H](O)[C@@H](O)[C@@H]1O; target = UGT2B7 (Homo sapiens, UniProt P16662); test = glucuronidation, substrate; system = UGT-expressing HEK293 homogenate; setting = normalized to UGT expression; quantity = kcat/Km; result = < 0.0167 M⁻¹ s⁻¹
SMILES = O=C(Cc1ccccc1O)N[C@@H](Cc1cn(CCNC(=O)c2ccc(S[C@@H]3O[C@H](CO)[C@H](O)[C@H](O)[C@H]3O)cc2)nn1)C(=O)NCCO; target = lecA; test = binding, isothermal titration calorimetry; setting = 25 °C; quantity = −TΔS; result = 2.916 ± 0.0239 kcal/mol
SMILES = [3H]C([3H])([3H])c1cnccc1CN1C[C@@H](c2cc(F)c(F)c(F)c2)CC1=O; target = SV2A (Homo sapiens, UniProt Q7L0J3); test = radioligand binding, autoradiography; system = human, post-mortem hippocampus; setting = 5 nM; quantity = specific binding; result = 359 fmol/mg
SMILES = O=C(Nc1ccccn1)C12CC1C(=NO)c1ccccc1O2 (single isomer, unassigned; (+)); target = GRM4 (Homo sapiens, UniProt Q14833); test = potentiator, calcium mobilization; system = CHO expressing hmGluR4/Gqi5; setting = together with: glutamate EC20; quantity = EC50; result = inactive
SMILES = CCCC[C@@H](CNC(=O)N[C@@H](CCC(N)=O)CNC(=O)N[C@@H](CCCNC(=N)N)C(=O)N[C@H](C(=O)N[C@@H](C)C(N)=O)[C@@H](C)CC)NC(=O)NC[C@H](CCCNC(=N)N)NC(=O)NC[C@H](Cc1ccc2ccccc2c1)NC(=O)[C@H](CCCCN)NC(=O)[C@H](CCC(=O)O)NC(C)=O; target = Histone chaperone ASF1A; test = isothermal titration calorimetry; setting = concentration not given, pH 7.5, 20 °C; quantity = binding enthalpy; result = -2.2 ± 0.3 kcal/mol
SMILES = CC(C)=CCC[C@](C)(O)[C@H]1CC[C@]2(C)[C@@H]1[C@H](O)C[C@@H]1[C@@]3(C)CC[C@H](O)C(C)(C)[C@@H]3CC[C@]12C; target = YWHAZ (Homo sapiens, UniProt P63104); test = isothermal titration calorimetry; setting = concentration not given; quantity = binding entropy; result = 18.7 cal/mol/K
SMILES = CCCCCCCC/C=C\CCCCCCCC(=O)NC(CO)CO; target = GPR119 (Homo sapiens, UniProt Q8TDV5); test = agonist, β-arrestin recruitment; scale = relative to: oleoylethanolamide; quantity = maximal activation; result = ~2 fold
SMILES = C#Cc1ccc(O[C@@H]2O[C@H](CO)[C@H](O)[C@H](O)[C@H]2O)cc1; target = lecA; test = ITC; setting = 5% DMSO; quantity = –TΔS; result = 2.5 ± 0.6 kcal/mol
SMILES = COc1cc(C(=O)NC2CCC(N3CCN(CC4CCC5(CCCC5)C4)CC3)CC2)c(F)cc1Nc1ncc2c(n1)N(C1CCCC1(F)F)CC(F)(F)C(=O)N2C (stereo not drawn); target = MAP3K20 (Homo sapiens, UniProt Q9NYL2); test = cell-free assay, TR-FRET; setting = 10 µM; quantity = inhibition; result = 0.33%
SMILES = COC(=O)CCSc1nc2n(n1)C(c1cccc(OC)c1)C(C(=O)Nc1cncc(C)c1)=C(C)N2 (stereo not drawn); target = MTOR (Homo sapiens, UniProt P42345); test = enzyme activity, inhibitor, TR-FRET; setting = 3 µM; quantity = inhibition; result = 96.4%
SMILES = CC(=O)N[C@@H](CC(C)C)C(=O)N[C@@H](CO)C(=O)N[C@@H](CC(=O)O)C(=O)N[C@@H](CO)C(=O)N1CCC[C@H]1C(=O)N[C@@H](CC(N)=O)C(=O)NCC(=O)N1CCC[C@H]1C(=O)N[C@@H](Cc1c[nH]c2ccccc12)C(=O)N[C@H](C(=O)N[C@@H](Cc1c[nH]c2ccccc12)C(=O)N[C@H](C(=O)N1CCC[C@H]1C(=O)N[C@@H](C)C(=O)N[C@@H](Cc1ccccc1)C(=O)N[C@@H](CO)C(=O)N[C@@H](CCC(N)=O)C(=O)N[C@@H](C)C(=O)N[C@H](C(=O)NCC(=O)O)C(C)C)C(C)C)C(C)C; target = HIV-1 gp120 HxBc2; setting = 5 µM, immobilised biotinylated peptide; quantity = binding; result = no binding
SMILES = OC[C@H]1O[C@@H](OCc2cn([C@@H]3O[C@H](CO)[C@@H](n4cc(CCCCc5cn([C@H]6[C@H](O)[C@@H](O)[C@H](n7cc(CO[C@@H]8O[C@H](CO)[C@H](O)[C@H](O)[C@H]8O)nn7)O[C@@H]6CO)nn5)nn4)[C@H](O)[C@H]3O)nn2)[C@H](O)[C@@H](O)[C@H]1O; target = lecA; test = isothermal titration calorimetry; setting = 298 K; quantity = -TΔS; result = 3.6 ± 0.3 kcal/mol
SMILES = COc1cc2c(cc1OC)C(c1ccc(F)cc1F)N(CCCOc1ccc(CCC(=O)O)cc1)CC2 (stereo not drawn); target = PPARA (Homo sapiens, UniProt Q07869); test = TR-FRET competitive binding; setting = 500 pM to 100 µM; quantity = binding; result = no binding
SMILES = Cc1ncsc1-c1ccc(CNC(=O)[C@@H]2C[C@@H](O)CN2C(=O)[C@@H](NC(=O)COCCOCCOCCNC(=O)C[C@@H]2N=C(c3ccc(Cl)cc3)c3c(sc(C)c3C)-n3c(C)nnc32)C(C)(C)C)cc1; target = BRD2/VHL, BD1; with VCB (Homo sapiens, UniProt P25440+P40337, K107A/Q101K/V106E); test = ITC; setting = 25 °C, ternary complex with VCB, BRD2 BD1 KEA; scale = relative to: binary Kd over ternary Kd; quantity = cooperativity; result = 8
SMILES = COc1cc(-c2ncn(/C=C\C(=O)OC(C)C)n2)cc(C(F)(F)F)c1; target = Exportin-1 (CRM1, Saccharomyces cerevisiae, UniProt P30822, del377-413/T539C); test = NES binding, pull-down; setting = 90 min, 4 °C, together with: 2 µM protein, 10 µM RanGTP; quantity = concentration for complete inhibition; result = 5 µM
SMILES = C=CCOc1ccc(C[C@@H]2NC(=O)[C@H](C(C)C)NC(=O)[C@@H](NC(=O)[C@@H](NC(C)=O)[C@@H](C)CC)CSSC[C@@H](C(=O)N[C@H](C(N)=O)[C@@H](C)O)NC(=O)[C@H](CCCNC(=N)N)NC(=O)[C@H](Cc3c[nH]cn3)NC(=O)[C@H](C)NC(=O)CNC(=O)[C@H](Cc3c[nH]c4ccccc34)NC(=O)[C@H](CC(=O)O)NC(=O)[C@H](CCC(N)=O)NC2=O)cc1; target = Complement C3, C3b fragment (Homo sapiens, UniProt P01024); test = SPR; setting = pH 7.4, 25 °C; quantity = kon; result = 530000 ± 130000 M⁻¹ s⁻¹
SMILES = CC[C@H](C)[C@@H]1NC(=O)[C@H](CC(N)=O)NC(=O)[C@H](Cc2ccc(O)cc2)NC(=O)[C@H](Cc2c[nH]c3ccccc23)NC(=O)[C@H](C)NC(=O)[C@@H](N)CSSC[C@@H]2NC(=O)[C@@H](CSC[C@@H](C(=O)N[C@H]3C(=O)N[C@@H](CC(C)C)C(=O)N[C@H]4C(=O)N[C@@H](C(C)C)C(=O)N[C@@H](CCC(=O)O)C(=O)N[C@@H](CS[C@H]3C)C(=O)N[C@@H](CCSC)C(=O)N3CCC[C@H]3C(=O)N[C@@H](CO)C(=O)N[C@H](C(=O)N[C@@H](CC(N)=O)C(=O)O)CS[C@H]4C)NC(=O)[C@H](Cc3ccc(O)cc3)NC(=O)[C@H](C)NC(=O)CNC(=O)[C@H](CCCCN)NC(=O)[C@H](CC(N)=O)NC(=O)CNC(=O)[C@H](CC(C)C)NC(=O)[C@H](CCCNC(=N)N)NC2=O)NC1=O; target = PBP1b; test = transglycosylation; setting = 6 µM; quantity = lipid II level fully inhibited; result = 3 µM
SMILES = Fc1ccc(Nc2nc(NC3CCCCC3)c3ccccc3n2)cc1F; target = Beta-2 adrenergic receptor, with Gs (ADRB2, Homo sapiens, UniProt P07550); system = reconstituted receptor in bicelles; setting = 10 µM, together with: isoprenaline 1 µM; quantity = Gs activation; result = no effect
SMILES = CC[C@H](C)[C@@H]1NC(=O)[C@H](Cc2ccc(O)cc2)NC(=O)[C@@H](N)Cc2cn(nn2)CCCC[C@@H](C(=O)N2CCC[C@H]2C(=O)N[C@@H](CC(C)C)C(=O)NCC(N)=O)NC(=O)[C@H](CC(N)=O)NC(=O)[C@H](CCC(N)=O)NC1=O; target = Oxytocin receptor (OXTR, Homo sapiens, UniProt P30559); test = inositol phosphate, agonist; system = HEK293; quantity = Emax; result = 19.8%
SMILES = CC[C@H](C)[C@H](NC(C)=O)C(=O)N[C@H]1CSSC[C@@H](C(=O)N(C)[C@H](C(N)=O)[C@@H](C)CC)NC(=O)[C@H](CCCNC(=N)N)NC(=O)[C@H](Cc2c[nH]cn2)NC(=O)[C@H](C)NC(=O)CN(C)C(=O)[C@H](Cc2c[nH]c3ccccc23)NC(=O)[C@H](CC(=O)O)NC(=O)[C@H](CCC(N)=O)NC(=O)[C@H](Cc2cn(C)c3ccccc23)NC(=O)[C@H](C(C)C)NC1=O; target = Complement C3 (Homo sapiens, UniProt P01024); test = ITC; system = PBS; setting = concentration not given, pH 7.4, 25 °C; quantity = −TΔS of binding; result = 5.7 kcal/mol
SMILES = Cc1ccc(C(=O)Nc2ccc(CP(=O)(O)O)cc2CP(=O)(O)O)cc1NC(=O)c1cccc(NC(=O)Nc2cccc(C(=O)Nc3cc(C(=O)Nc4ccc(CP(=O)(O)O)cc4CP(=O)(O)O)ccc3C)c2)c1; target = F11 (Homo sapiens, UniProt P03951); test = enzyme activity, inhibitor; setting = 50 µM, together with: S-2366 substrate; quantity = Vmax; result = 50 ± 2.5 mAU/min
SMILES = Clc1ccc2ccc3[n+](c2c1)[Ir-3]12([c]4ccccc4-3)([c]3ccccc3-c3ccc4ccc(Cl)cc4[n+]31)[n+]1ccccc1-c1cccc[n+]12.F[P-](F)(F)(F)(F)F; target = CDK9 (Homo sapiens, UniProt P50750); test = isothermal titration calorimetry; setting = 25 °C; quantity = −TΔS; result = 13.8 kcal/mol
SMILES = CNC1C[S+]2CC[S+]3CC[S+](C1)[Ru-4]321([N]=C=S)[n]2c3ccc(OC)cc3c3c4c(c5cc(F)c[n+]1c5c32)C(=O)NC4=O (stereo not drawn); target = RPS6KB1 (Homo sapiens, UniProt P23443); test = KINOMEscan; setting = 100 nM; scale = relative to: control; quantity = remaining binding; result = 71%
SMILES = COc1cc(C2CC(=O)Nc3nc(N)[nH]c(=O)c32)ccc1O (stereo not drawn); target = uncharacterized protein (Leishmania donovani, UniProt A0A3Q8IA09); test = competitive vs direct ITC; setting = together with: aspartate or glutamate; quantity = binding free energy decrease; result = 0.2 to 0.5 kcal/mol
SMILES = COC(=O)C1=Cc2ccccc2S1(=O)=O; target = E3 ubiquitin-protein ligase RNF5, with Derlin-1 (Homo sapiens, UniProt Q99942); test = refers to: FLAG-Derlin1; system = HEK-293T; setting = concentration not given, 2 h; quantity = Derlin1 co-immunoprecipitation; result = increased
SMILES = O=C(CCCCCCS)Nc1ccccc1; target = HDAC8 (Homo sapiens, UniProt Q9BY41); test = temperature-dependent ITC; quantity = temperature where ΔG equals ΔH; result = 310 K
SMILES = O=C(c1cc2c(s1)CCCCC2)N1CCC(n2c(=O)[nH]c3ccccc32)CC1; target = Trpc6 (Mus musculus, UniProt Q61143, K675R); test = ion current, agonist, whole-cell patch clamp; setting = 100 µM, K675R mutant; quantity = maximal current density; result = 1.43 ± 0.2 pA/pF

Some of these lines once more:
SMILES = CNC1C[S+]2CC[S+]3CC[S+](C1)[Ru-4]321([N]=C=S)[n]2c3ccc(OC)cc3c3c4c(c5cc(F)c[n+]1c5c32)C(=O)NC4=O (stereo not drawn); target = RPS6KB1 (Homo sapiens, UniProt P23443); test = KINOMEscan; setting = 100 nM; scale = relative to: control; quantity = remaining binding; result = 71%
SMILES = O=C(CCCCCCS)Nc1ccccc1; target = HDAC8 (Homo sapiens, UniProt Q9BY41); test = temperature-dependent ITC; quantity = temperature where ΔG equals ΔH; result = 310 K
